# Assay results gathered from unrelated publications.
# Parts stem from different laboratories: compare values within a part only.

# Block 1
# Target: Centromere-binding protein 1, full length, N-terminal tag (CBF1, Saccharomyces cerevisiae, UniProt P17106, residues 1-351)
# Sequence of UniProt P17106 (whole entry, looked up): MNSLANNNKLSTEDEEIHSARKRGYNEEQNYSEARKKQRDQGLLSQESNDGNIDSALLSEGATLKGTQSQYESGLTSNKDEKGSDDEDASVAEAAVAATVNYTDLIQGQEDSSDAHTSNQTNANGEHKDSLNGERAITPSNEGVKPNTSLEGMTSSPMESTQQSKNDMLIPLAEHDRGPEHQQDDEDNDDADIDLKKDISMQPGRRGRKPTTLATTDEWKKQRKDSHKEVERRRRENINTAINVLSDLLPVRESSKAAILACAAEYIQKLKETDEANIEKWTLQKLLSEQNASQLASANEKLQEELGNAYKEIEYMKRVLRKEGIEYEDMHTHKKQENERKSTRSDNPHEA
# Technique: protein-binding microarray
# Form: double-stranded DNA, one strand shown
# Matrix: in vitro
# Tested at: 0.8 µM
# Setting: whole 60-bp probe, no competitor
# Direction: higher = stronger binding
Sequence,fluorescence intensity
CTAAAATATATTGATCACGTGAAATTAGTGGCATTCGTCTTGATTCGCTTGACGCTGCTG,17000 a.u.
CTAAATGGTATATATGATGTTACAGGAAAACTTTTCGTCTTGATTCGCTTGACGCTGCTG,507 a.u.
CTACTTTTTATTGCAAACGTGCAAACGCATGACTTCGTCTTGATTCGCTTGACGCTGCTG,807 a.u.
CTACGCGATGAAGGTGACTCAGCCAATCCGGGTTTCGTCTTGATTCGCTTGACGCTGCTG,525 a.u.
GAATCTCGAAAGGTCATCGTGTAAAAGTTCTACTAGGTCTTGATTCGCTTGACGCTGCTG,527 a.u.
CTATACATATACTGTCACGCGACATTTTCACCTTTCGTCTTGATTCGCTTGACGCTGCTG,3060 a.u.
GAATCCAGCATTCATTATCACATGGATCTTATATAGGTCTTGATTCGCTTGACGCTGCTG,1560 a.u.
GAAACGAACTTGAATAGGGTGACATATAAATATTAGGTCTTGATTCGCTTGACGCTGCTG,543 a.u.
CTACTATACATGGGGTACGTGCCTGTATTTTGATTCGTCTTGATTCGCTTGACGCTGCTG,613 a.u.
GAAGATTTACAGAAAGCGCTGATGTTCACTGGGTAGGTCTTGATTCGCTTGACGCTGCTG,519 a.u.
GAATGAAGGTATTATCAGTTGAGCAAATATTACTAGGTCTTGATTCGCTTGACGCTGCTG,539 a.u.
GAAACGAAAGTATATAGCACCACGAGTGAGTTATAGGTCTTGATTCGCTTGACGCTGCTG,592 a.u.
GAACTAATGTGAGTTCACGTTATAGAAGCTGGATAGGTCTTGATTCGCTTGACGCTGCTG,769 a.u.

# Block 2
# Target: Sal-like protein 4, full length isoform B (SALL4, Homo sapiens, UniProt Q9UJQ4-2, residues 1-616)
# Technique: universal PBM
# Form: double-stranded DNA, one strand shown
# Matrix: in vitro
# Tested at: not given
# Setting: 8-mer, flanks averaged, mean of replicates
# Direction: higher = stronger binding
Sequence,E-score
ATTAGGTC,0.187
ATGGCACC,-0.13
CATCTGCC,-0.155
TATCACCA,0.153
CTGCGAGA,-0.309
CTTCGGTA,-0.115

# Block 3
# Target: Histone acetyltransferase KAT6A, winged helix 1, GST fusion (KAT6A, Homo sapiens, UniProt Q92794, residues 1-85)
# Technique: protein binding microarray
# Form: double-stranded DNA, one strand shown
# Matrix: in vitro
# Tested at: not given
# Setting: 8-mer, flanks averaged, mean of 2 arrays, mostly near background
# Reference: not given
# Direction: higher = stronger binding
# Target sequence (chain): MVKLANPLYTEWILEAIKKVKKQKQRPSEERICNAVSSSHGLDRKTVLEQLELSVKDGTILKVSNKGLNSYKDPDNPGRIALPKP
Sequence,E-score
AGCCGCCG,0.466
CGGATCCC,0.295
GACAACTA,-0.155
ATGATGCA,-0.241
GCTCGGGA,0.2
GGTACACC,0.223
GCAACAGC,0.164
GCAGTTTA,-0.00917

# Single results of other studies
Substance,target,assay,test system,setting,how to read,quantity,value
"PhoQ, residues 284 288 289 292 302 303 TLSLKA","PhoP, residues 12 14 15 18 19 AQALL (Escherichia coli, UniProt P23836)","Sort-seq, measured: YFP reporter",E. coli,"PhoQ-PhoP variant library, together with: 10 µM Mg2+","reference: high Mg2+ state, higher = stronger signaling",fold induction,2.15

# A few entries again (block 3):
Sequence,E-score
AGCCGCCG,0.466
CGGATCCC,0.295
